Published values from different studies.
± marks the error that the study gave.
AGER: Advanced glycosylation end product-specific receptor (AGER, Homo sapiens, UniProt Q15109)
UniProt Q15109, sequence (whole entry, looked up): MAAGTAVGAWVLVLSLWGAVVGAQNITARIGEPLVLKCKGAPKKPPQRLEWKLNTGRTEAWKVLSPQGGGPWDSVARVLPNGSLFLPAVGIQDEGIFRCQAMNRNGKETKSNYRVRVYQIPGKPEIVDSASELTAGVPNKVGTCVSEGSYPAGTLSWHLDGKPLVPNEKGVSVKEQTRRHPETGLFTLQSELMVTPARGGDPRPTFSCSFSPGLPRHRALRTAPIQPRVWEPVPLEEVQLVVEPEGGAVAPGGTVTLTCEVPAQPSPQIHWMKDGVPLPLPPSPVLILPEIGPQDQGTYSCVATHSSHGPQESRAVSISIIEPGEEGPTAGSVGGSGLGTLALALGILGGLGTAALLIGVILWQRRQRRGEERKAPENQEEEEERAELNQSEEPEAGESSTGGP
GBA2: Beta-glucosidase (GBA2, Homo sapiens, UniProt Q9HCG7)
UniProt Q9HCG7, sequence (whole entry, looked up): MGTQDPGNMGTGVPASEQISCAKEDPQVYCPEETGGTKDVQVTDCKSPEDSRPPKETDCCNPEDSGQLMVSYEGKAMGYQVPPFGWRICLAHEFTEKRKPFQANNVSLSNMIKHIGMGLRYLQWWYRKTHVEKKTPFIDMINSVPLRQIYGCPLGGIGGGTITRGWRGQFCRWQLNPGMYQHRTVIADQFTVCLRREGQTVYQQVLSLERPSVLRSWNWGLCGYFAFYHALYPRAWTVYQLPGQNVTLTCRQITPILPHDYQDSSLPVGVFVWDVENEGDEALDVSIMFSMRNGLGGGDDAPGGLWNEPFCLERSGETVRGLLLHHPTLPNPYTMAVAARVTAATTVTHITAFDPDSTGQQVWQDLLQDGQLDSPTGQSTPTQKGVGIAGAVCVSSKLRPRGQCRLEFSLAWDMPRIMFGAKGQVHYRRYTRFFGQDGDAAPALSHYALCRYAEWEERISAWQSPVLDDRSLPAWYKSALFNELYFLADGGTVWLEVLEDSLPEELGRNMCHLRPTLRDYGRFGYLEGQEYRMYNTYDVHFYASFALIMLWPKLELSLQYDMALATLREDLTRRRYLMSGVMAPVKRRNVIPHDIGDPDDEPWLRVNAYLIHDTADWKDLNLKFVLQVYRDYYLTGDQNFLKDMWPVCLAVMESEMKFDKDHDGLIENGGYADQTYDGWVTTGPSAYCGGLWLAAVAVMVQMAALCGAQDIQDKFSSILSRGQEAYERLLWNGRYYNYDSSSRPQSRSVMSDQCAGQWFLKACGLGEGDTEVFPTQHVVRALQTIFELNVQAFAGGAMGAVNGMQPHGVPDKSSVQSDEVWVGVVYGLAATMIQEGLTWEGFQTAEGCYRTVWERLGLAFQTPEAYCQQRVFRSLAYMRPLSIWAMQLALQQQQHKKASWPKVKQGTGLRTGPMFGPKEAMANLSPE
Maoa: Amine oxidase [flavin-containing] A (Maoa, Rattus norvegicus, UniProt P21396)
UniProt P21396, sequence (whole entry, looked up): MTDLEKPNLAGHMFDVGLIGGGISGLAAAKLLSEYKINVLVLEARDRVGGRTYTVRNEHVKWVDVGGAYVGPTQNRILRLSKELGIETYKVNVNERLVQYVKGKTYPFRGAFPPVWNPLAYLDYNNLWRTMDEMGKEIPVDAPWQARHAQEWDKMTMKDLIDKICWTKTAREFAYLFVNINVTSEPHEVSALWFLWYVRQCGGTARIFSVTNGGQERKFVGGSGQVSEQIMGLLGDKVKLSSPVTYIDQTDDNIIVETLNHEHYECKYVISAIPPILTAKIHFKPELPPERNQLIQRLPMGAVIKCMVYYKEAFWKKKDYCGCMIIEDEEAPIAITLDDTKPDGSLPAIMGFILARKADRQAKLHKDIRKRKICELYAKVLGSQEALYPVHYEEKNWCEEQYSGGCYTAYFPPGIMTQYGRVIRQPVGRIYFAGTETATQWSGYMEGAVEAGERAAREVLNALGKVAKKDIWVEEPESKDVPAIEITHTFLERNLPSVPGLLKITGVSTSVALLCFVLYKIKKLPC
PLCG2: 1-phosphatidylinositol 4,5-bisphosphate phosphodiesterase gamma-2 (PLCG2, Homo sapiens, UniProt P16885)
UniProt P16885, sequence (whole entry, looked up): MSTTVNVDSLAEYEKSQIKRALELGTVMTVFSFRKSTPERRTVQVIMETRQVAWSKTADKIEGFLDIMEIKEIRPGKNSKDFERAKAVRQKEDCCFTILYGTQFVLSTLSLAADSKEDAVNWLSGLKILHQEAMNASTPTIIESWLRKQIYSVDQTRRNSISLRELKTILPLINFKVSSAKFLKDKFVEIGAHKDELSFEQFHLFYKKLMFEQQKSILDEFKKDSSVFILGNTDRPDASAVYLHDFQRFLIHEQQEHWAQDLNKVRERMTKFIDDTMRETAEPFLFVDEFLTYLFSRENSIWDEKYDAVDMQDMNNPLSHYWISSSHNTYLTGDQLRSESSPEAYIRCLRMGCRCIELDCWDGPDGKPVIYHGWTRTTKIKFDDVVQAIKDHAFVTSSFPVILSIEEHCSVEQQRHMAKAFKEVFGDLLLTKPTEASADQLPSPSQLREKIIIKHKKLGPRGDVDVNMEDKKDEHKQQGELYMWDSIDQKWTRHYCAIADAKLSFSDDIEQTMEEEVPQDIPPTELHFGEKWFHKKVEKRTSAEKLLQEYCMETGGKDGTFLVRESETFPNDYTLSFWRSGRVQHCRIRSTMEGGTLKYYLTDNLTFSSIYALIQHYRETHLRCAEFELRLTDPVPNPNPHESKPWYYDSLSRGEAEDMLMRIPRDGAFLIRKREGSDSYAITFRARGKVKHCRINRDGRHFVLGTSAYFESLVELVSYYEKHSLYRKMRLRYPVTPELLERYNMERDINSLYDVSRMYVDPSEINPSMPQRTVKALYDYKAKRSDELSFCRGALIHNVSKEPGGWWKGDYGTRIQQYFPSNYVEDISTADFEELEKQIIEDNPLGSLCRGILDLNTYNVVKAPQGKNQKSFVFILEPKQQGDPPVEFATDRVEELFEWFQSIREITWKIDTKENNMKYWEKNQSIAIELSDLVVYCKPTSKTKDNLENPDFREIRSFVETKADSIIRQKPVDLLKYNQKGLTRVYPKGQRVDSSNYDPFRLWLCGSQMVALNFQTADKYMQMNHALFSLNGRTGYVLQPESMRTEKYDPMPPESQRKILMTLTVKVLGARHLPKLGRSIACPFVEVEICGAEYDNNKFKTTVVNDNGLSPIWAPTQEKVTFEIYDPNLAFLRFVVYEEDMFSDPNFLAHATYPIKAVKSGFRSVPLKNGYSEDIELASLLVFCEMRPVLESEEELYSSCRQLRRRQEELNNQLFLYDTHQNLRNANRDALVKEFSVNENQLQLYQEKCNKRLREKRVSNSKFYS
UniProt P07949, sequence (whole entry, unmodified, looked up): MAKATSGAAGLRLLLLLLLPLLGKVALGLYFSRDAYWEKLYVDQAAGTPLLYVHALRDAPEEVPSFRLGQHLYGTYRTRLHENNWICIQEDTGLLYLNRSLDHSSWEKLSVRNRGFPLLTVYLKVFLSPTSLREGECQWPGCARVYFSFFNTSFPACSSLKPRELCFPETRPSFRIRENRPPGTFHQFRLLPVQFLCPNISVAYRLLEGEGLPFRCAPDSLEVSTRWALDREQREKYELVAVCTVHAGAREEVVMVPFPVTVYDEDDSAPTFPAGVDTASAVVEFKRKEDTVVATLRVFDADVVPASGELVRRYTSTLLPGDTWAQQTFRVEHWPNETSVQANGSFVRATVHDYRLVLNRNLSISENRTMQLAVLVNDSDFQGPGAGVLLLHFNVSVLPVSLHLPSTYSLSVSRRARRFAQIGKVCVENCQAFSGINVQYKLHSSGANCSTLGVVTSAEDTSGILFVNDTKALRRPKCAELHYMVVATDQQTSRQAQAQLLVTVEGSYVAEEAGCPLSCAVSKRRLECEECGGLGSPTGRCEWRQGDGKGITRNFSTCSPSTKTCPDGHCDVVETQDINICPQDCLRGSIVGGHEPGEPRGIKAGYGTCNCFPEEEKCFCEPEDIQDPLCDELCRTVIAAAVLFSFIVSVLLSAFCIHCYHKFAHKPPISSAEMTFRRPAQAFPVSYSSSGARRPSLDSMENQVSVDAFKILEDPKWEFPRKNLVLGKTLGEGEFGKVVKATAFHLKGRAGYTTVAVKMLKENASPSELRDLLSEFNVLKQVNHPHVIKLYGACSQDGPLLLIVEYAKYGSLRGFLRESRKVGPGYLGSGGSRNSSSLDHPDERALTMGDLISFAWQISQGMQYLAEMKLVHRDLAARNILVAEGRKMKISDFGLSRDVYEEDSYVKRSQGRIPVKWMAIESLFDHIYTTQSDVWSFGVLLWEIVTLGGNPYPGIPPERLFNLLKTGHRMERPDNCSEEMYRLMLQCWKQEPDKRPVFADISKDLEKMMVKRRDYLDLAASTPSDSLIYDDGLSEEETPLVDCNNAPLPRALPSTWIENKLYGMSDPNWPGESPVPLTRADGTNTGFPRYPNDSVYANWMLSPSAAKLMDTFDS
UniProt Q9NSU2, sequence (whole entry, looked up): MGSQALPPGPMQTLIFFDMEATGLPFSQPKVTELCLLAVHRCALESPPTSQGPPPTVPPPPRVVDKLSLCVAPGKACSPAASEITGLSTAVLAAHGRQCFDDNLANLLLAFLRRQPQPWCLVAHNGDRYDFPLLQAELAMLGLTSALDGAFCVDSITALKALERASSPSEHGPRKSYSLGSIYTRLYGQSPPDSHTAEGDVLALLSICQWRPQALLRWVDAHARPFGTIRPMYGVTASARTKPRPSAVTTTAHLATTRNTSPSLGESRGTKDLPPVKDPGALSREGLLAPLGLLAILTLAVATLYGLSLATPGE
UniProt P50750, sequence (whole entry, looked up): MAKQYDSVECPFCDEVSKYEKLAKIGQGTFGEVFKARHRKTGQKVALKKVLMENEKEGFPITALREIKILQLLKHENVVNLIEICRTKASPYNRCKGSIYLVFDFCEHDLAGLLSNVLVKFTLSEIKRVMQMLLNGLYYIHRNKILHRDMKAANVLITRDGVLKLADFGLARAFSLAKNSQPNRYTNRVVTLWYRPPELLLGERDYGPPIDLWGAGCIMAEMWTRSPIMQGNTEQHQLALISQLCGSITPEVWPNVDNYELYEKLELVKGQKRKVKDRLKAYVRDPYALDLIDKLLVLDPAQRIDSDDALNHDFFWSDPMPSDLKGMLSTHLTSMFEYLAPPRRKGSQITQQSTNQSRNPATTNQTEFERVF

SMILES	tested on	assay	system	conditions	scale	quantity	value
Cc1c[nH]c2nccc(-c3ccc(C(=O)N[C@@H]4c5c(F)cc(C(F)F)cc5C[C@@H]4O)cn3)c12	RET (Homo sapiens, UniProt P07949)	binding, competition with immobilised ligand				Kd	0.85 µM
CCCCCNC(=O)N1N=C(c2ccc(NC(=O)Nc3ccc(Cl)cc3)cc2)CC1c1ccc(Cl)cc1 (stereo not shown)	AGER	binding				Kd	13 ± 3.2 µM
CCC1C=CC2CCN(C(=O)C3CCC4C=CC5(CCCN5C(=O)C(Cc5ccccc5Cl)NC(C)=O)C(=O)N43)C2C(=O)N1CC(=O)OC (stereo not shown)	Tyrosine-protein kinase Fyn, SH3 domain (FYN, Homo sapiens, UniProt P06241)	binding				Kd	2400 µM
Clc1ccc2c(c1)N(CCCN1CCN(CCn3cc(CN4CCCNCCN(Cc5cn(CCN6CCN(CCCN7c8ccccc8Sc8ccc(Cl)cc87)CC6)nn5)CCCNCC4)nn3)CC1)c1ccccc1S2	Amyloid-beta precursor protein, monomer (APP, Homo sapiens, UniProt P05067)	binding				Kd	7.6 µM
OC[C@@H]1[C@@H](O)[C@H](O)[C@@H](O)CN1CCCCCOCc1ccc(-c2ccc(F)nc2)cc1	GBA2	inhibitor, 4MU-β-D-glucopyranoside	HEK293T homogenates overexpressing GBA2			IC50	0.005 µM
CCCC[C@@H]1NC(=O)[C@H](Cc2ccc(O)cc2)NC(=O)[C@@H]2CCCN2C(=O)[C@H](CC(=O)O)NC(=O)[C@H](C)NC(=O)[C@H](Cc2ccccc2)NC(=O)[C@@H]2CSCCC(=O)N3CN(CN(C3)C(=O)CCSC[C@@H](C(=O)N[C@@H](C)C(N)=O)NC1=O)C(=O)CCSC[C@H](NC(C)=O)C(=O)N[C@@H](CC(C)(C)C)C(=O)N1CCC[C@H]1C(=O)N[C@@H](CCC(=O)O)C(=O)N[C@H](CCCCNC(=O)CCc1cn(CCOCCOCCOCCN(CCOCCOCCOCCC(=O)N[C@H]3CSCCC(=O)N4CN5CN(C4)C(=O)CCSC[C@H](NC(=O)[C@@H](CC(=O)O)NC(=O)[C@H](Cc4cccc6ccccc46)NC(=O)[C@@H]4CCCN4C3=O)C(=O)N[C@@H](CCSC)C(=O)N[C@@H](CCCCNC(=N)N)C(=O)N[C@@H](CC(=O)O)C(=O)N[C@@H](Cc3c[nH]c4ccccc34)C(=O)N[C@@H](CO)C(=O)N[C@@H]([C@@H](C)O)C(=O)N3CCC[C@H]3C(=O)N3C[C@H](O)C[C@H]3C(=O)N[C@@H](Cc3c[nH]c4ccccc34)C(=O)N[C@H](C(N)=O)CSCCC5=O)CCOCCOCCOCCn3cc(CCC(=O)NCCCC[C@H]4NC(=O)[C@H](CCC(=O)O)NC(=O)[C@@H]5CCCN5C(=O)[C@H](CC(C)(C)C)NC(=O)[C@@H](NC(C)=O)CSCCC(=O)N5CN6CN(C5)C(=O)CCSC[C@H](NC(=O)[C@H](Cc5ccc(O)cc5)NC(=O)[C@@H]5CCCN5C4=O)C(=O)N[C@@H](Cc4ccccc4)C(=O)N[C@@H](C)C(=O)N[C@@H](CC(=O)O)C(=O)N4CCC[C@H]4C(=O)N[C@@H](Cc4ccc(O)cc4)C(=O)N[C@@H](CCCC)C(=O)N[C@H](C(=O)N[C@@H](C)C(N)=O)CSCCC6=O)nn3)nn1)C(=O)N1CCC[C@H]1C(=O)N[C@@H](Cc1ccc(O)cc1)C(=O)N2	Cell adhesion molecule 3 (CADM3, Homo sapiens, UniProt Q8N126)	SPR				Kd	> 0.2 µM
CCc1nc2cc3ccccc3cc2cc1C(=O)N1CCC[C@H]1C(=O)N[C@@H](C/C=C\C[C@H](NC(=O)[C@@H]1CCCN1C(=O)c1cc2cc3ccccc3cc2nc1CC)C(=O)N[C@@H](CCCCN)C(=O)NCCCN)C(=O)N[C@@H](CCCCN)C(=O)NCCCN	(CCUG)10 RNA	SPR				Kd	0.038 µM
CNC(=O)C[C@H](Cc1ccc(C#N)cc1)NC(=O)c1cc(-c2ccc(CN[C@H](C)c3ccc(C)cc3)o2)ccc1Cl	ATPase family AAA domain-containing protein 2, bromodomain (ATAD2, Homo sapiens, UniProt Q6PL18)	binding, competition with immobilised ligand				Kd	> 20 µM
Cc1ccc(CN)cc1	Maoa			pH 7.5, deprotonated amine, pKa-corrected		Kd	0.39 µM
OC[C@H]1[C@@H](O)[C@H](O)[C@@H](O)CN1CCCCOCCC12CC3CC(CC(C3)C1)C2	GBA2	inhibitor, 4MU-β-D-glucopyranoside	HEK293T homogenates overexpressing GBA2			IC50	0.00058 µM
CCc1nc2cc3ccccc3cc2cc1C(=O)N[C@@H](CCCCN)C(=O)N[C@@H](C/C=C/C[C@H](NC(=O)[C@H](CCCCN)NC(=O)c1cc2cc3ccccc3cc2nc1CC)C(=O)N1CCC[C@H]1C(=O)NCCCN)C(=O)N1CCC[C@H]1C(=O)NCCCN	(CCUG)10 RNA	SPR				Kd	0.124 µM
COC1CN([C@H]2CC[C@H]([C@@]3(C)Oc4c(Cl)cc(C(=O)NCc5c(SC)cc(C)[nH]c5=O)c(C)c4O3)CC2)C1		RNA-seq, refers to: TBC1D12 mouse homolog	mouse, HT-1376 xenograft, whole blood	dose not given	relative to: vehicle	log2 fold change	0.563
NS(=O)(=O)c1cc(C(=O)NCCCC(=O)O)c(NC2CCCCC2)cc1Cl	CA4 (Homo sapiens, UniProt P22748)			pH 7		Kd	2 µM
Cc1ncsc1-c1ccc(C(C)NC(=O)C2CC(O)CN2C(=O)C(NC(=O)CCCCCCCCCCN2CCCC(Nc3ncc(Cl)c(Nc4ccccc4S(=O)(=O)C(C)C)n3)C2)C(C)(C)C)cc1 (stereo not shown)	22Rv1	RNA-seq, refers to: SUV39H1 mRNA		concentration not given	relative to: DMSO	log2 fold change	-1.05
CCOC(=O)C1CC(CC)C2C=CC3CCN(C(=O)C4CCC5C=CC6(CCCN6C(=O)C(Cc6ccccc6Cl)NC(C)=O)C(=O)N54)C3C(=O)N12 (stereo not shown)	VASP (Homo sapiens, UniProt P50552)	binding, fluorescence				Kd	0.4 µM
O=C(Nc1ccc(Cl)cc1)Nc1ccc(C2CC(c3ccc(Cl)cc3)=NN2C(=O)Nc2ccc(Cl)cc2)cc1 (stereo not shown)	AGER	binding				Kd	10.5 ± 1.7 µM
CNS(=O)(=O)Nc1nccc(Cc2c(C)c3ccc(Oc4ncccc4F)cc3oc2=O)c1F	NCI-H2122	cell viability		7 days		IC50	0.0506 µM

SMILES	tested on	assay	system	conditions	scale	quantity	value
Nc1ncc(-c2cc(-c3cnn(CC(F)(F)F)c3)ncc2F)nc1C(=O)NC1CNCC(F)C1 (stereo not shown)	MET	KINOMEscan competition binding		1 µM	relative to: DMSO control	remaining binding	49%
Cn1ncc2cc(-c3cncc(Cl)c3N3CCC4(CCNC4=O)CC3)ccc21	CDK9 (Homo sapiens, UniProt P50750)	cell-free assay		lysate		Kd	7.39 µM
CCc1nc2cc3ccccc3cc2cc1C(=O)N1CCC[C@H]1C(=O)N[C@@H](CCC/C=C/CCC[C@H](NC(=O)[C@@H]1CCCN1C(=O)c1cc2cc3ccccc3cc2nc1CC)C(=O)N[C@@H](CCCCN)C(=O)NCCCN)C(=O)N[C@@H](CCCCN)C(=O)NCCCN	(CCUG)10 RNA	SPR				Kd	0.248 µM
NCc1ccc(Cl)cc1	Maoa	steady-state isotope effects		pH 7.5		Kd	29 µM
NCCCC[C@H](NC(=O)[C@H](C/C=C/C[C@H](NC(=O)[C@@H]1CCCN1)C(=O)N[C@@H](CCCCN)C(=O)NCCCN)NC(=O)[C@@H]1CCCN1)C(=O)NCCCN	(CCUG)10 RNA	SPR				Kd	31.1 µM
C=CC(=O)Nc1cccc(Cn2ncc3cnc(Nc4cnn(CCOC)c4)nc32)c1	PCTK1 human	binding, KINOMEscan		100 nM	lower = stronger binding	percent of control	86%
COc1ccc(OC)c(-n2nnc(C(=O)Nc3cc(OCCOCCOCCOCCNC(=O)CCc4ccc5n4[B-](F)(F)[N+]4=C(C)C=C(C)C4=C5)cc(C(C)(C)C)c3)c2C)c1	NR1I2 (Homo sapiens, UniProt O75469)	binding				Kd	0.048 µM
O=C(O)c1cc(C(=O)CC(=O)c2cc(C(=O)O)c(O)c3ccccc23)c2ccccc2c1O	TREX1 (Homo sapiens, UniProt Q9NSU2)	binding, fluorescence				Kd	19.7 µM
Cc1cc(C)c(S(=O)(=O)Nc2cccc(C(F)(F)F)c2)c(C)c1	PLCG2	binding, surface plasmon resonance		25 °C, immobilised residues 1-1195		Kd	57 µM
C[C@@]12C(=O)O[C@]3(CC[C@@H]1O)[C@@H]1CC[C@@H]4C[C@]1(C[C@]41CO1)[C@@H](C(=O)O)[C@@H]32	GID1 (Oryza sativa, UniProt Q6L545)					Kd	1.35 µM
Cc1nn(-c2cccc(N)c2)c(=O)c2cnc(Nc3ccc(N4CCNCC4)cc3)nc12	RET (Homo sapiens, UniProt P07949, V804L)	enzyme activity, inhibitor				IC50	> 10 µM
Cc1cccc2c1N(C(=O)n1ccnn1)CC2	D14 (Oryza sativa, UniProt Q10QA5)	ITC		mean of 3 runs		Kd	23.8 µM
C[n+]1c(/C=C/c2ccc(N(c3ccccc3)c3ccccc3)cc2)cc(/C=C2\Sc3ccccc3N2CCCN2CCCC2)c2ccccc21	Ds26 DNA	isothermal titration calorimetry		pH 7.4, 25 °C, 2% DMSO		Kd	46.5 µM
O=C(Nc1ccc(Cl)cc1)Nc1ccc(C2=NNC(c3cccc(NC(=O)Nc4ccc(Cl)cc4)c3)C2)cc1 (stereo not shown)	AGER	binding				Kd	40.3 ± 5.1 µM
Nc1ncnc2c1ncn2C1OC(CN(CCCC2CNCc3c2ccc(Cl)c3Cl)CCC(N)C(=O)O)C(O)C1O (mixture of isomers)	PNMT (Homo sapiens, UniProt P11086)	ITC		pH 8.0, 25 °C, second site, SAH-bound enzyme		Kd	0.313 ± 0.009 µM
CCOC(=O)Nc1ccc(NCc2ccc(F)cc2)nc1N	PLCG2	binding, surface plasmon resonance		25 °C, immobilised residues 1-1195		Kd	22 µM
C=CC(=O)N1C[C@H](C)N(c2nc(OC[C@@]34CCCN3C[C@H](F)C4)nc3c(F)c(-c4ccc(F)c5sc(N)c(C#N)c45)c(C(F)(F)F)cc23)C[C@H]1C	GTPase KRas, GDP-bound (KRAS, Homo sapiens, UniProt P01116)	microscale thermophoresis				Kd	0.016 ± 0.0038 µM

A few entries again:
SMILES	tested on	assay	system	conditions	scale	quantity	value
CNC(=O)C[C@H](Cc1ccc(C#N)cc1)NC(=O)c1cc(-c2ccc(CN[C@H](C)c3ccc(C)cc3)o2)ccc1Cl	ATPase family AAA domain-containing protein 2, bromodomain (ATAD2, Homo sapiens, UniProt Q6PL18)	binding, competition with immobilised ligand				Kd	> 20 µM
Cc1ccc(CN)cc1	Maoa			pH 7.5, deprotonated amine, pKa-corrected		Kd	0.39 µM
OC[C@H]1[C@@H](O)[C@H](O)[C@@H](O)CN1CCCCOCCC12CC3CC(CC(C3)C1)C2	GBA2	inhibitor, 4MU-β-D-glucopyranoside	HEK293T homogenates overexpressing GBA2			IC50	0.00058 µM
